Experimental data collected from several papers.
Numbered parts are unrelated; each lists some results of a single study. Positions count from the first letter of the parent shown.

Block 1
Target: Ras GTPase-activating protein-binding protein 1, RRM domain (G3BP1, Homo sapiens, UniProt Q13283)
Chain of UniProt Q13283 (whole entry, looked up): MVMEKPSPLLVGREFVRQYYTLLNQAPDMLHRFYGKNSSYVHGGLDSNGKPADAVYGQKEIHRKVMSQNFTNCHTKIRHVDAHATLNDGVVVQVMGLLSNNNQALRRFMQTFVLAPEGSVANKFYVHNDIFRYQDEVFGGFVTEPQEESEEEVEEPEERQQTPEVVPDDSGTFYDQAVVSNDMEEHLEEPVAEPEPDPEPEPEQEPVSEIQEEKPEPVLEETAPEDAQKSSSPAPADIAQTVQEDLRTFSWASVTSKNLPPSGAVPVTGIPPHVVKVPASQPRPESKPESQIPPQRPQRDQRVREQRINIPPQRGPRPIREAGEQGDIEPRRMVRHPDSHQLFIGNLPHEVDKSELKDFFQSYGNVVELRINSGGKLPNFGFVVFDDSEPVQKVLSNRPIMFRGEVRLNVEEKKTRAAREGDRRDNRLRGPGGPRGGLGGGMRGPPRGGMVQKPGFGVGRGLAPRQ
Method: RNA Bind-n-Seq
Form: RNA
Sample: in vitro
Tested at: 1 µM
Notes: whole 134-nt RNA, ends assumed
With: 150 mM KCl
Relative to: input library
Reading: higher = stronger binding
Sequence | log2 enrichment
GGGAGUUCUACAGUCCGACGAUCUGGCCCUGGUGGCAUGCGGUGAGGAAGAGGUGGCCUCAUGGAUCGUGGUGGUCCCGGUGGAAUGUUCAGAGGUGGCCGUGGUGGAGACAGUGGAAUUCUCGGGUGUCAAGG | 0.842
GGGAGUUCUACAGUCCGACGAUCCACAGACAACACGCACCCACACAGACACAGAGGGAAGGGGUUGGGAUGGGGACAGGGUGCACAGCAGGGCGGGGUAGGACCCCAGCCCCAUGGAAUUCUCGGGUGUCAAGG | -0.308
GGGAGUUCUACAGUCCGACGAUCACCAUGCAGGUGGGCAUCUUUGGGAAGUGGGGCAAGGGGGGGAUCGGGAGGGGGGUAACACUUUGGGAACAGGUGGUCCCAGGUCGUUUCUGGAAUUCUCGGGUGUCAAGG | 0.446
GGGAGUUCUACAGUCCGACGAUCCUCAAGUCCUGUGCUACACAUCGUAUGUACCGAAUCGGGGAAGGGAAGGAAGGGAAAGUAUUAUGUUACGCCGUUCGGAUCUGCACUUCCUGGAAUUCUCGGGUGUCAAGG | -0.1
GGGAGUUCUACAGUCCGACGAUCUUGGAGGUGGAUUUUGUUUAUUUUUUUAGCUCAUUUCCAGGGGUGGGAAUUUUUUUUUAAUAUGUGUCAUGAAUAAAGUUGUUUUUGAAAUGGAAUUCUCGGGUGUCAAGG | 1.62
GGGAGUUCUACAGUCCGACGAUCGUCCUGUGCUACACAUCGUAUGUACCGAAUCGGGAAAAAAAGGGUUUGGGUUUUUGGGAAAGUAUUAUGUUACGCCGUUCGGAUCUGCACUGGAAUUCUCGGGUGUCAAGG | 0.185
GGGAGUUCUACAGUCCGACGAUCGUCCUGUGCUACACAUCGUAUGUACCGAAUCGGUUUUUUGGUUUUUUGGGGUUUUUUGGAAAGUAUUAUGUUACGCCGUUCGGAUCUGCAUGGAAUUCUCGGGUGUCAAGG | -0.274
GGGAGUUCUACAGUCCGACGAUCCCUGUGCUACACAUCGUAUGUACCGAAUCGGGAAAAAAAGGGAAAAAAAGGGAAAAAGGGAAAGUAUUAUGUUACGCCGUUCGGAUCUGCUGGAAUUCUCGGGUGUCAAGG | -0.0925
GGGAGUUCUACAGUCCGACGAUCAAGUCCUGUGCUACACAUCGUAUGUACCGAAUCGGUUUUUGGUUUUUGGGUUUUUGGAAAGUAUUAUGUUACGCCGUUCGGAUCUGCACUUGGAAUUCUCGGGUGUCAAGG | -0.0435

Block 2
Target: Centromere-binding protein 1, full length, His-tagged (CBF1, Saccharomyces cerevisiae, UniProt P17106, residues 1-351)
Chain of UniProt P17106 (whole entry, looked up): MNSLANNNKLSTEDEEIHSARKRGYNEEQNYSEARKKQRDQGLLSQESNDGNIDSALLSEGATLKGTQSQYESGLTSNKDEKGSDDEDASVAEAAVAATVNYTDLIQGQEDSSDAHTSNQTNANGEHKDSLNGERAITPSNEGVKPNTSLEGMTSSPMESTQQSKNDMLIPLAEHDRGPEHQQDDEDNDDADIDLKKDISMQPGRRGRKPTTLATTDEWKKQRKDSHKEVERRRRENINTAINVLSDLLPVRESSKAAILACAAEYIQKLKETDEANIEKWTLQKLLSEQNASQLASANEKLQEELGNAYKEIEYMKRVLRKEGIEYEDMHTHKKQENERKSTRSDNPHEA
Method: competition protein-binding microarray
Form: double-stranded DNA, one strand shown
Sample: in vitro
Tested at: 2 µM
Notes: whole 60-bp probe, lowest competitor level
With: Pho4 competitor, 0.05 µM
Reading: higher = stronger binding
Sequence | fluorescence intensity [a.u.]
CTGGCTCATATGCCACACATGTCAGTAGGTTCATAGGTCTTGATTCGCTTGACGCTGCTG | 99.9
GTCTTGTCTCATTGAGATGTGGGTGTCCCCACTTCAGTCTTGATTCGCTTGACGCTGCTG | 78.7
GCGCTGCGCAATCTCAACGTGGTGAGGATCTTTGAAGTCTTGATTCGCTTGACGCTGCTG | 74.4
AAACTTTGGCCTTAGCCCGTGGGTATGTTACCATTGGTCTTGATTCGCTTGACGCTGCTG | 67.2
GTCTTGTCTCATTGTCAGGTGGGTGTCCCCACTTCAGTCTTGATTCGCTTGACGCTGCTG | 130
CCGGTATCTTTCCAAATCGTGCCGATGCTTGGAACCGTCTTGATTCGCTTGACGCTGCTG | 61.6
TTAATTAGCTTCTTGCATGTGCTCTTTAGCTTCGGCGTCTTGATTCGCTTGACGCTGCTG | 128
GTCTTGTCTCATTGTTAAGTGGGTGTCCCCACTTCAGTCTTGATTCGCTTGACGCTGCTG | 62.4
CGTCCTAGTGATTGCGGGGTGGGTGCCATGAGGAAGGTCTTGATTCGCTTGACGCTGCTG | 101

Block 3
Target: Histone acetyltransferase KAT6A, both winged helices, GST fusion (KAT6A, Homo sapiens, UniProt Q92794, residues 1-181)
Method: protein binding microarray
Form: double-stranded DNA, one strand shown
Sample: in vitro
Tested at: not given
Notes: 8-mer, flanks averaged, mean of 2 arrays, mostly near background
Relative to: not given
Reading: higher = stronger binding
Residues (chain): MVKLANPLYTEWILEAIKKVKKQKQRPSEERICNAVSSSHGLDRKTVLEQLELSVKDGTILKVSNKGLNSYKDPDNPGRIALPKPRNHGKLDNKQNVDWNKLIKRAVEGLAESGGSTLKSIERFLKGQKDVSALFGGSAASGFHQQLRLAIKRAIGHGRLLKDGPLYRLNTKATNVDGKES
Sequence | E-score
CCATTAGA | -0.172
TGCGATAA | -0.0741
ACGCTTAG | 0.0747
ATTACCCA | -0.236
ATCGACAT | 0.0264
CGGCTACC | 0.22
GCGTTTTA | 0.17
AATCTTTA | -0.0242
AGGGGTCC | -0.0975
CGGGTTTA | 0.283
CAACCTTG | 0.126
CAAGGCTA | -0.0257
ACATGTAA | 0.00458

Block 4
Target: Interferon regulatory factor 7, full length, phosphomimetic (IRF7, Homo sapiens, UniProt Q92985, residues 1-503, S101K/S471D/S472D/S475D/S476D/S477D/S483D/S484D/S487D)
Method: protein-binding microarray
Form: double-stranded DNA, one strand shown
Sample: in vitro
Tested at: 250 nM
Notes: 60-bp whole probe
With: salmon DNA 0.4 mg/ml
Relative to: random background probes
Reading: higher = stronger binding
All sequences stand within: GCCTAGCAC … GTCTTGATTCGCTTGACGCTGCTG
Residues (chain): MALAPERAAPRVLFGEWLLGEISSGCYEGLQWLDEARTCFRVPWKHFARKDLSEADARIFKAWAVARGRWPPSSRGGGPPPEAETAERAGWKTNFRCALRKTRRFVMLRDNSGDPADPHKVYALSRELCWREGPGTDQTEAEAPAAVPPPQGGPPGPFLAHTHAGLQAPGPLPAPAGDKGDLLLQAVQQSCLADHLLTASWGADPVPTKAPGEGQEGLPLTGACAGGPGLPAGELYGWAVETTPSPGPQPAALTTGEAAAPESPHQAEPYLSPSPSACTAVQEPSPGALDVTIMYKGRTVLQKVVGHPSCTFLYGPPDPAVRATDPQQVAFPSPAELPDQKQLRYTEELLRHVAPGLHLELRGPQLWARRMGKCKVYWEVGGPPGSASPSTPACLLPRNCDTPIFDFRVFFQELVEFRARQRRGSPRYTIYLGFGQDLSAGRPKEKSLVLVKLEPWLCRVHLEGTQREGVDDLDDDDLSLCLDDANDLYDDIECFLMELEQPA
Sequence | log fluorescence
TGAGTAATTACATAATTACGGTGCTAG | -0.38 z-score
TTAGAACTGAGTATCAATTAGTGCTAG | -0.341 z-score
GACGAACCGAGACTGGAGACGTGCTAG | 1.39 z-score
TTTTGCTTTCTTTTTGCACTGTGCTAG | 2.3 z-score
GACGAACTGAGTCTCGTGACGTGCTAG | 0.0341 z-score
GACGGTATCGTACTGGGGACGTGCTAG | -0.309 z-score
GACGGACTGGATTATCGGGACGTGCTA | -0.3 z-score
GACGGTCTCGGTATCGGGGCGTGCTAG | 1.66 z-score
TCATTTTACAATTTGCTACTGTGCTAG | 1.61 z-score
TCATATTTATTTTTACAACTGTGCTAG | 0.794 z-score
CTGTTAAAGAATTAAGAAGGGTGCTAG | 0.609 z-score
TCAATTTGGCATATCTAACTGTGCTAG | 0.263 z-score
TTAGAAATGGGGTTTCGATTAGTGCTA | 6.66 z-score
TTAGTTTTCATTATTGTGTCGTGCTAG | 1.6 z-score
GACGATTTCCTTCTCCTGACGTGCTAG | 0.825 z-score
TTCGGACTGCTTATCCTTTAGTGCTAG | -0.318 z-score

Block 5
Target: ABI1, truncated, D143A, DHFR fusion (Arabidopsis thaliana)
Method: DHFR PCA, deep sequencing
Sample: yeast
Notes: methotrexate growth selection, single substitutions
With: (+)-ABA 710 µM
Relative to: wild-type fitted maximum
Reading: higher = stronger binding
Starting sequence: PYL1, truncated, DHFR fusion (Arabidopsis thaliana); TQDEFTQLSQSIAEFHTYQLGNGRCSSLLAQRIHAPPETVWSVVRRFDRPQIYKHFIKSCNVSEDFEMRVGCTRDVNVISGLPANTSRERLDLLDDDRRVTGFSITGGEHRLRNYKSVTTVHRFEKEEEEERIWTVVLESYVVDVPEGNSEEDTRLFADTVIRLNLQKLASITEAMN
Change | relative binding score [%]
A158N | 86.6
L82V | 97.2
K54V | -8.6
S42H | 97.4
A13L | 91.7
V70Q | 86.3
A158F | 56.3
Q2C | 104
P83E | 85.6
R132L | 108
N77A | 102

For quick reference, copied from above (block 1):
Sequence | log2 enrichment
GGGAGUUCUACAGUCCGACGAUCUUGGAGGUGGAUUUUGUUUAUUUUUUUAGCUCAUUUCCAGGGGUGGGAAUUUUUUUUUAAUAUGUGUCAUGAAUAAAGUUGUUUUUGAAAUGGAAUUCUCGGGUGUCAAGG | 1.62
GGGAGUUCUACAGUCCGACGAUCCACAGACAACACGCACCCACACAGACACAGAGGGAAGGGGUUGGGAUGGGGACAGGGUGCACAGCAGGGCGGGGUAGGACCCCAGCCCCAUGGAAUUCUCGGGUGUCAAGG | -0.308
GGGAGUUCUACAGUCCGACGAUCCUCAAGUCCUGUGCUACACAUCGUAUGUACCGAAUCGGGGAAGGGAAGGAAGGGAAAGUAUUAUGUUACGCCGUUCGGAUCUGCACUUCCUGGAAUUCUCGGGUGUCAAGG | -0.1
